Measurements collected from several papers.
Each numbered part is a random draw from the data of one study; scales do not carry over between parts. Several values in a cell are separate wells, animals, samples, runs or records.
Chain of UniProt Q08881 (whole entry, looked up): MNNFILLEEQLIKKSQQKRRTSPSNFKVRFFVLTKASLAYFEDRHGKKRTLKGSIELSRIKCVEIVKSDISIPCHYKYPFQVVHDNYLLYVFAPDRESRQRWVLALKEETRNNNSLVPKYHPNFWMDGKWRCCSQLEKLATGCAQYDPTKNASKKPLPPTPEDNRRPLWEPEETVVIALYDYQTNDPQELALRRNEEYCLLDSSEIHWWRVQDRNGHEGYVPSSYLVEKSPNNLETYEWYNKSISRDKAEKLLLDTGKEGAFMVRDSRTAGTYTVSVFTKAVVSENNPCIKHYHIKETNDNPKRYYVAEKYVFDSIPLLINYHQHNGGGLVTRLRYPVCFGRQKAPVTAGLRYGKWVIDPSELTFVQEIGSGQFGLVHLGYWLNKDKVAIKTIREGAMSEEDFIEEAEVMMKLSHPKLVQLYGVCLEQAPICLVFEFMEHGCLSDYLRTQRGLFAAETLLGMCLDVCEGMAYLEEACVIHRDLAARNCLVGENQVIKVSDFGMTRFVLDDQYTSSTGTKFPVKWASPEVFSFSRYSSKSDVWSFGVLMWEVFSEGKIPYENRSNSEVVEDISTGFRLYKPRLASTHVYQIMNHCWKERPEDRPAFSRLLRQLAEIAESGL

Sample 1
SMILES: Cn1cc(-c2cccc(CN3CCC4(CC3)COc3c4ccc4c3CN([C@H]3CCC(=O)NC3=O)C4=O)c2)cn1
Observed: enzyme activity
Matrix: human liver microsomes
Relative to: negative control
CYP2C8: Cytochrome P450 2C8 (CYP2C8, Homo sapiens, UniProt P10632)
Chain of UniProt P10632 (whole entry, looked up): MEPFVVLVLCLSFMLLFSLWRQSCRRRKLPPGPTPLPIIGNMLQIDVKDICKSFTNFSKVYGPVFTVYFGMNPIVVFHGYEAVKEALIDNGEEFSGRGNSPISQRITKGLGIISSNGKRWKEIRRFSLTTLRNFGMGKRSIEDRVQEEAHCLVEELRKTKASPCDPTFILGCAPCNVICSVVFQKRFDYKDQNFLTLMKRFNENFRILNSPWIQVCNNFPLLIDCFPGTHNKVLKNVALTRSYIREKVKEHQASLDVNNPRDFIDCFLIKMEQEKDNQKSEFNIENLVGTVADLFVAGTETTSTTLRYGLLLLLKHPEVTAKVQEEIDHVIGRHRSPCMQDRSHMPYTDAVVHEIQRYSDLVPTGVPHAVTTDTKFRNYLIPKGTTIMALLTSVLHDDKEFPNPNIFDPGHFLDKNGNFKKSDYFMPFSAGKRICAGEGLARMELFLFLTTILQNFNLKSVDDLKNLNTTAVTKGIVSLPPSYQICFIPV
CYP2C19: Cytochrome P450 2C19 (CYP2C19, Homo sapiens, UniProt P33261)
Chain of UniProt P33261 (whole entry, looked up): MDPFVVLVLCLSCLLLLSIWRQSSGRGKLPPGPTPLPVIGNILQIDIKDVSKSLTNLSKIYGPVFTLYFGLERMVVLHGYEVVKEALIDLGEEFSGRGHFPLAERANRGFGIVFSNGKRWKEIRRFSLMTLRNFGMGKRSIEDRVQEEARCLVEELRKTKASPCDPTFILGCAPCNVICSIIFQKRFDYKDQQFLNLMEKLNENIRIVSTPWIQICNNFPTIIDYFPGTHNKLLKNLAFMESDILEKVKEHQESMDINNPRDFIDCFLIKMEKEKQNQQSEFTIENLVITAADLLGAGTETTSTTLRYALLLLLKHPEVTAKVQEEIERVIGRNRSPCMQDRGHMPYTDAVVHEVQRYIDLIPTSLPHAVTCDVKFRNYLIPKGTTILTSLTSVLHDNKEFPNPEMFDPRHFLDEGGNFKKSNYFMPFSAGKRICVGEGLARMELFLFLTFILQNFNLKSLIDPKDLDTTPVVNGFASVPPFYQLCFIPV
CYP2D6: Cytochrome P450 2D6 (CYP2D6, Homo sapiens, UniProt P10635)
Chain of UniProt P10635 (whole entry, looked up): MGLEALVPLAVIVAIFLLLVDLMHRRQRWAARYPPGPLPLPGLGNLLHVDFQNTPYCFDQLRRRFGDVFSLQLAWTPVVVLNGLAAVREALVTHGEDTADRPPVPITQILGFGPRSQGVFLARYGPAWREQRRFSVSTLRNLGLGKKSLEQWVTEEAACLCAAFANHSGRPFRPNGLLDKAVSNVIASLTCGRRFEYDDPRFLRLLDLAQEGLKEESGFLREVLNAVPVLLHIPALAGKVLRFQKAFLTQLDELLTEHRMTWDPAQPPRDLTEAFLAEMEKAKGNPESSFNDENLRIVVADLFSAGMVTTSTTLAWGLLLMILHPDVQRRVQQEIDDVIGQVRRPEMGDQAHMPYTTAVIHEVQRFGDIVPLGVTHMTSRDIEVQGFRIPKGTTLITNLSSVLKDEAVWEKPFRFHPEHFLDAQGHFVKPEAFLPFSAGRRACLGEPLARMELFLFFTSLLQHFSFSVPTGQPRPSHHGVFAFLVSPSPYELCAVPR
CYP3A4: Cytochrome P450 3A4 (CYP3A4, Homo sapiens, UniProt P08684)
Chain of UniProt P08684 (whole entry, looked up): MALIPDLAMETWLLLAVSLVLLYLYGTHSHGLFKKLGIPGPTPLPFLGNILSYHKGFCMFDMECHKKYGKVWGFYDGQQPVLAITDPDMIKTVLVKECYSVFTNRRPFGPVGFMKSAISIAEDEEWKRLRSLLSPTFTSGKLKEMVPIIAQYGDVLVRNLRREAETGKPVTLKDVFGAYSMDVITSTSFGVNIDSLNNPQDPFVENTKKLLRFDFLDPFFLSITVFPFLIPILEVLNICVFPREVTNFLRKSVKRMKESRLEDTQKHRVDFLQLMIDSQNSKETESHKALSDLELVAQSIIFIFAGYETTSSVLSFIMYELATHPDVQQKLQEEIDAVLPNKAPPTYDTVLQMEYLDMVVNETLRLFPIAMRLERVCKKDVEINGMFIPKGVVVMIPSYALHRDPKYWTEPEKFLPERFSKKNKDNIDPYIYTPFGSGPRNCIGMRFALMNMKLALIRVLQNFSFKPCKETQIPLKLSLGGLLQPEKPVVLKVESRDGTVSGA
It gave 103% for remaining activity (CYP2C8; 0.12 µM).
For CYP2C19; 0.04 µM: remaining activity read 101%.
It gave 90.7% for remaining activity (Cytochrome P450 1A2 (CYP1A2, Homo sapiens, UniProt P05177); 10.00 µM).
For CYP2D6; 0.04 µM: remaining activity read 104%.
CYP3A4; 0.0137 µM, together with: testosterone substrate — remaining activity: 96.1%.
CYP2D6; 10.00 µM — remaining activity: 89.7%.
The remaining activity was 106% (CYP2C8; 0.37 µM).
CYP3A4; 0.04 µM, together with: testosterone substrate — remaining activity: 99.1%.
CYP2C19; 3.33 µM — remaining activity: 98.1%.
It gave 105% for remaining activity (CYP2D6; 1.11 µM).

Sample 2
SMILES: Ic1ccc(Nc2nc(NCCc3c[nH]c4ccccc34)nc(N3CCOCC3)n2)cc1
Target: 1-phosphatidylinositol 3-phosphate 5-kinase (PIKFYVE, Homo sapiens, UniProt Q9Y2I7)
Chain of UniProt Q9Y2I7 (whole entry, looked up): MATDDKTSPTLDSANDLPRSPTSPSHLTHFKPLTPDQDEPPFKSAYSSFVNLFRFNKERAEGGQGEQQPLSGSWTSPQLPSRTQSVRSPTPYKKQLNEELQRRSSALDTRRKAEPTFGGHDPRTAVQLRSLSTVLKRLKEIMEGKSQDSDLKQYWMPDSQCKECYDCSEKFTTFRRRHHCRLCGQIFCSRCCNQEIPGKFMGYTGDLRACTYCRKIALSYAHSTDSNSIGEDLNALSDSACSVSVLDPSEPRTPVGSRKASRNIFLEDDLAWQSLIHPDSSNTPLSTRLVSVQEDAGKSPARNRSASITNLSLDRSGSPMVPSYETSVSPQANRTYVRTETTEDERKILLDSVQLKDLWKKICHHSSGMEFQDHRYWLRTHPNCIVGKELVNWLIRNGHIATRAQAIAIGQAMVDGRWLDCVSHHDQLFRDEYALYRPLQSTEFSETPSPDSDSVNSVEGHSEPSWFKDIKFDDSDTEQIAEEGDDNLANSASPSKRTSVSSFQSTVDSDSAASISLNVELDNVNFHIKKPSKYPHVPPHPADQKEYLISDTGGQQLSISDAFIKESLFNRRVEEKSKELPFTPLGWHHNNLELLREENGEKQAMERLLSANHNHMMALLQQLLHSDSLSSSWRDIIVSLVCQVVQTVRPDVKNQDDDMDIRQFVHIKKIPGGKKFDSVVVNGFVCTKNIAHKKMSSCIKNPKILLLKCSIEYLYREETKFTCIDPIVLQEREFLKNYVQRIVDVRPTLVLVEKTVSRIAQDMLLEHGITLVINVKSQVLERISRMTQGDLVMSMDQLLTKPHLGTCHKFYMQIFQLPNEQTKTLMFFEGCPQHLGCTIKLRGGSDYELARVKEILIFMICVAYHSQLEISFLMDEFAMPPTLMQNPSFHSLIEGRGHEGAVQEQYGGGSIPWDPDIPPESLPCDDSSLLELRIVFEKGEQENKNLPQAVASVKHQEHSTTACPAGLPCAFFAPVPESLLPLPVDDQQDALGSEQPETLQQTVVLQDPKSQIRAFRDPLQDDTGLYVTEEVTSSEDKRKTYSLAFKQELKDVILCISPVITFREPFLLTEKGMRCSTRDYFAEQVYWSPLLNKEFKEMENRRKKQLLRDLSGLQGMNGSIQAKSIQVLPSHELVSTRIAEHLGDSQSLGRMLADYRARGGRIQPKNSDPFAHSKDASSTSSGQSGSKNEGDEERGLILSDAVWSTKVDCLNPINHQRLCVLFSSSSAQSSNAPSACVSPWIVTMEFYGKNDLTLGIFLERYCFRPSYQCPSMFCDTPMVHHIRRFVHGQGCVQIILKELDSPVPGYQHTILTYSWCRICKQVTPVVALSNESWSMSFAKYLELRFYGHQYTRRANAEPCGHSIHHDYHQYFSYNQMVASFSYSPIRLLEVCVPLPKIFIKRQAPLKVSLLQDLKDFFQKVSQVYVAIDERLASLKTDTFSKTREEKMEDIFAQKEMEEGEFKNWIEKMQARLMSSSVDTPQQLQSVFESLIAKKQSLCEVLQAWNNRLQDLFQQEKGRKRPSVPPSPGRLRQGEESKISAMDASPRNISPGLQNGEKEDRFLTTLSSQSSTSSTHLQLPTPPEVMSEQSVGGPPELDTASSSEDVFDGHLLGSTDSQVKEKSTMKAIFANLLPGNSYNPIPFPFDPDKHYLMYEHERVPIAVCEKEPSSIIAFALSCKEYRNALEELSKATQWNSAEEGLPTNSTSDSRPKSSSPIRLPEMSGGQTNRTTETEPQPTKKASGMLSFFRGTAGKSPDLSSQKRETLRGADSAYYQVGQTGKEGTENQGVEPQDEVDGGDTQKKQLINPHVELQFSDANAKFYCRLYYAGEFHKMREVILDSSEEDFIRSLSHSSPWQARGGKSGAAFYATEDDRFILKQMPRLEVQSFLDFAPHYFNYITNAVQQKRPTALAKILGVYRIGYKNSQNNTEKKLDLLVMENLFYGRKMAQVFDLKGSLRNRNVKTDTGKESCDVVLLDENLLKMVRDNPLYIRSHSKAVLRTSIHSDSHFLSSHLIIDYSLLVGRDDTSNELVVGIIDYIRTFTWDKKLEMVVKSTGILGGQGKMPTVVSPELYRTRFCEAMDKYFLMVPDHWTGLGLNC
Technique: KINOMEscan
Notes: unit not given
Relative to: DMSO
0.508 nM — remaining binding: 0.839 and 1.17 and 1.11 and 0.74.
It gave 0.0277 and 0.0357 and 0.0194 and 0.0705 for remaining binding (370 nM).
For 3330 nM: remaining binding read 0.0249 and 0.029 and 0.0318 and 0.0198.
The remaining binding was 0.747 and 0.758 and 0.599 and 0.576 (4.57 nM).
For 41.2 nM: remaining binding read 0.146 and 0.121 and 0.0896 and 0.211.
For 10000 nM: remaining binding read 0.035 and 0.0318 and 0.0297 and 0.0281.

Sample 3
Compound: CC(C)C[C@@H]1NC(=O)[C@@H](N(C)C(=O)[C@@H](NC(=O)[C@@H]2C[C@@H](F)CN2C(=O)C2(C(F)(F)F)CC(F)(F)C2)C2CC2)CCCCCCCN(C)C(=O)[C@H](Cc2cc(Cl)cnc2OC2CC2)N(C)C1=O
Species: mouse, sample A SCLC PDX
Route: oral
Dose: 100 mg/kg three times daily
day 14 — tumour volume: 248 mm3 and 221 mm3 and 145 mm3 and 154 mm3 and 167 mm3.
For day 11: tumour volume read 206 mm3 and 128 mm3 and 144 mm3 and 216 mm3 and 147 mm3.
It gave 395 mm3 and 248 mm3 and 300 mm3 and 426 mm3 for tumour volume (day 28).
The tumour volume was 149 mm3 and 166 mm3 and 201 mm3 and 123 mm3 (day 4).

Sample 4
Structure (SMILES): CNc1ncc2cc(-c3cc(OC)cc(OC)c3Cl)c(=O)n(CCc3ccc(NC(=O)C(C#N)=CC(C)(C)N4CCOCC4)cc3)c2n1
Observed: kinase activity
It gave 1% for inhibition (Ephrin type-B receptor 4 (EPHB4, Homo sapiens, UniProt P54760); 1 µM).
The inhibition was 0% (Tyrosine-protein kinase ITK/TSK (ITK, Homo sapiens, UniProt Q08881); 1 µM).
The inhibition was 1% (Activated CDC42 kinase 1 (TNK2, Homo sapiens, UniProt Q07912); 1 µM).
It gave -8% for inhibition (Glycogen synthase kinase-3 alpha (GSK3A, Homo sapiens, UniProt P49840); 0.1 µM).
It gave -5% for inhibition (Ephrin type-B receptor 2 (EPHB2, Homo sapiens, UniProt P29323); 0.1 µM).
Calcium/calmodulin-dependent protein kinase type II subunit alpha (CAMK2A, Homo sapiens, UniProt Q9UQM7); 0.1 µM — inhibition: -2%.
For Serine/threonine-protein kinase TBK1 (TBK1, Homo sapiens, UniProt Q9UHD2); 1 µM: inhibition read 1%.
The inhibition was 5% (Tyrosine-protein kinase FRK (FRK, Homo sapiens, UniProt P42685); 0.1 µM).

A few entries again (sample 4):
For Serine/threonine-protein kinase TBK1 (TBK1, Homo sapiens, UniProt Q9UHD2); 1 µM: inhibition read 1%.
It gave 1% for inhibition (Ephrin type-B receptor 4 (EPHB4, Homo sapiens, UniProt P54760); 1 µM).
Calcium/calmodulin-dependent protein kinase type II subunit alpha (CAMK2A, Homo sapiens, UniProt Q9UQM7); 0.1 µM — inhibition: -2%.
